Measured values of several laboratories.
± gives the spread as reported.
Cell line: HepG2

| SMILES | assay | setting | IC50 |
| --- | --- | --- | --- |
| Cc1cc(C#N)cc(C)c1Oc1cc(Nc2ccc(C#N)cn2)nc2cnccc12 |  | 48 h | > 127 µM |
| Clc1nc2cc3c(cc2cc1-c1nc2ccccc2[nH]1)OCO3 | cell growth or viability, MTT | 48 h | > 100 µM |
| CCN(CC)c1ccc2c(c1)Oc1cc(N(CC)CC)ccc1C21c2ccccc2C(=O)N1N=Cc1c[c-]c(-c2ccccn2)cc1.Cc1c(C)c(-c2ccc(-c3ccccc3)cc2)[c-](C)c1C.[Cl-].[Ir+3] | cell growth, MTT | 24 h | 28.7 ± 6.9 µM |
| C=CC(OC(C)=O)c1ccc(OC(C)=O)c(OC)c1 (centres unmarked) | cell growth or viability, MTT | 24 h | 4.3 µM |
| N#Cc1cccc(-c2ccc(=O)n(Cc3cccc(-c4ncc(OCC5CCN(CCCCCCCCCC(=O)Nc6cccc7c6C(=O)N(C6CCC(=O)NC6=O)C7=O)CC5)cn4)c3)n2)c1 (centres unmarked) | cell growth or viability, CCK-8 | 72 h | > 100 µM |
| CCC1=C(CC)C2=[N+]3C1=Cc1c(CC)c(CC)c4[n]1[Ir-3]31([c]3n(C(C)C)cc[n+]3C(C)C)([c]3n(C(C)C)cc[n+]3C(C)C)[n]3c(c(CC)c(CC)c3=CC3=[N+]1C(=C4)C(CC)=C3CC)=C2.F[P-](F)(F)(F)(F)F | cell growth or viability, MTT | 72 h | 2.4 µM |
| CSC(=NN=C(C)c1ccc(S(=O)(=O)N2CCC(C)CC2)cc1)N(C)C | cell growth or viability, MTT |  | 3.33 µM |
| [Cl][Pd-2]1([Cl])[N+](=Cc2ccc[nH]2)Cc2cccc[n+]21 | cell growth or viability, MTT | 24 h | 13 µg/mL |
| CCCCCCCCSc1nc(N)c2c(F)c(C#N)c(F)c(Cl)c2n1 | cell growth or viability, MTT | 96 h | > 100 µM |
| COc1ccc(/C=C/C(=O)/C=C/c2cn(-c3ccccc3)nc2C(=O)O)cc1OC | cell growth | 72 h | > 25 µM |
| Cc1nc(CN(C)c2ncnc3c2cnn3CCO)cs1 | cell growth or viability, MTT |  | > 50 µM |
| COc1ccc(-c2nnc(-c3ccccn3)[nH]2)cc1OC | cell growth or viability, MTT | 24 h | > 100 µM |
| CCN(CC)c1ccc2c(c1)[O][Pt-2]1([Cl])[N+](=C2)CC[NH+]1c1ccccc1 (centres unmarked) | cell viability, MTT | 48 h | 27.1 ± 3.53 µM |
| [NH2][Pt]1([NH2])([Cl])([O]C(=O)C(F)(F)F)[O]C(=O)C2(CC(=O)C2)C(=O)[O]1 | cell growth or viability, MTT |  | 15 µM |
| C/C(=N\NC(N)=S)c1c(O)c2ccccc2oc1=O | cell growth or viability, MTT | 48 h | 61.4 µM |
| CN(C(=NN=C(c1ccccc1)c1ccccn1)[S][Ga]([Cl])[Cl])C1CCCCC1 | cell growth or viability, MTT | 48 h | 0.14 µM |
| Cc1cc(=O)oc2cc(OCC(=O)NCC(=O)NCC(=O)NN)ccc12 | cell growth or viability, MTT |  | 172 µM |
| C=C[C@H](OC(C)=O)c1ccc(OC(C)=O)cc1 | cell growth or viability, MTT | 24 h | 18 µM |
| Cc1c(C(=O)NNC(=O)Nc2ccc(Cl)cc2)nnn1Cc1nc2ccccc2[nH]1 | cell growth or viability, MTT | 48 h | 53.6 µM |
| COc1ccc(NC(=O)c2c(Nc3ccccc3)sc(C(=O)N/N=C/c3ccc(OC)c(OC)c3)c2NC(C)=O)cc1 | cell growth or viability, SRB |  | 5.1 µM |

| SMILES | assay | setting | IC50 |
| --- | --- | --- | --- |
| COc1cc(OC)c(-c2coc3c4c(c(OC)cc3c2=O)OC(C)(C)C=C4)cc1OC | cell growth or viability, MTT | 72 h | 8.05 µM |
| Nc1ncnc2c1C(c1cccs1)C1=C(CCCC1=O)O2 (centres unmarked) | cell growth or viability, MTT | 72 h | 39.7 µM |
| C=C1C(=O)[C@@]23CC[C@@H]4[C@](C)(COC(C)=O)CCC[C@@]4(C)[C@@H]2[C@@H](O)C[C@@H]1C3 (single isomer, unassigned) | cell growth or viability, MTT |  | 15.5 µM |
| N#Cc1cccc(-c2ccc(=O)n(Cc3cccc(-c4ncc(OCC5CCN(CCCCCC(=O)Nc6cccc7c6C(=O)N(C6CCC(=O)NC6=O)C7=O)CC5)cn4)c3)n2)c1 (centres unmarked) | cell growth or viability, CCK-8 | 72 h | 1.84 µM |
| COc1cc2ncnc(Nc3ccc(F)c(Cl)c3)c2cc1NC(=O)N/N=C/c1ccc[nH]1 | cell growth or viability, MTT | 72 h | 9.18 µM |
| O=C(Nc1ccccc1)c1ccccc1-n1c(=O)[nH]c2ccc(F)cc2c1=O | cell growth or viability, MTT | 24 h | 10.1 µM |
| COc1cc(/C=C/C(=O)/C=C/c2cn(-c3ccccc3)nc2C(=O)O)ccc1O | cell growth | 72 h | > 25 µM |
| CCOC(=O)c1ccc(NC(=O)C(C#N)=C2C(=O)c3ccccc3C2=O)cc1 | cell growth or viability, MTT | 24 h | 28.1 µM |
| CC(=O)O[C@H]1CC[C@]2(C)[C@H]3CC=C4[C@@H]5CC(C)(C)CC[C@]5(CO)CC[C@@]4(C)[C@]3(C)CC[C@H]2C1(C)C | cell growth or viability, SRB |  | 72.8 µM |
| CCCCCCCCSc1nc(N)c2c(F)c(C#N)c(F)c(F)c2n1 | cell growth or viability, MTT | 96 h | > 100 µM |
| CC(=O)OC[C@H]1O[C@@H](n2nc(-c3cc4ccccc4[nH]3)n(-c3ccccc3)c2=S)[C@H](OC(C)=O)[C@@H](OC(C)=O)[C@@H]1OC(C)=O | cell growth or viability, MTT |  | ≥ 50 µM |
| CCn1cc(/C=C/c2ccc3ccccc3[n+]2CC)c2ccccc21 | cell growth or viability, MTT | 24 h | 9.5 µM |
| O=C1C(=NN=c2[nH]ccs2)c2cc(Cl)ccc2N1CCn1ncc2c(=O)[nH]cnc21 | cell growth or viability, SRB | 72 h | 1.74 µM |
| Cc1cc(C=O)cc(C)c1Oc1cc(Nc2ccc(C#N)cn2)nc2ccncc12 |  | 48 h | > 126 µM |
| COc1ccc(C(=O)Cn2cc([C@]3(O)CC[C@H]4[C@@H]5CCc6cc(O)ccc6[C@H]5CC[C@@]43C)nn2)cc1 | cell growth or viability, resazurin | 72 h | 16.4 µM |
| O=C(/C=C(O)/C=C/c1cccs1)/C=C/c1cccs1 | cell growth or viability, SRB | 72 h | 66 µM |
| Clc1nc2ccccc2cc1-c1nc2ccccc2[nH]1 | cell growth or viability, MTT | 48 h | > 100 µM |
| C=CCSc1nc(N)c2c(F)c(C#N)c(F)c(Cl)c2n1 | cell growth or viability, MTT | 96 h | 31.6 µM |
| CCOc1cccc(/C=N/Cc2ccccn2)c1O | cell growth or viability, MTT | 48 h | 66.7 µM |
| COc1ccc(C(c2c[nH]c3ccccc23)c2c[nH]c3ccccc23)cc1 | cell growth or viability, MTT | 24 h | 4.93 µM |

| SMILES | assay | setting | IC50 |
| --- | --- | --- | --- |
| Clc1cc2nc(-c3cc4cc5c(cc4nc3Cl)OCO5)[nH]c2cc1Cl | cell growth or viability, MTT | 48 h | > 100 µM |
| COC(=O)CNc1cc(CS(=O)(=O)c2ccc3ccccc3c2)ccc1OC | cell growth or viability, MTS | 48 h | 0.535 µM |
| COc1ccc(-c2cc(=O)c3c(O)cc(O[C@@H]4O[C@H](CO)[C@@H](O)[C@H](O)[C@H]4O)cc3o2)cc1OC | cell growth or viability, resazurin | 72 h | 27.9 µM |
| Clc1ccc2[nH]c(-c3cc4ccccc4nc3Cl)nc2c1 | cell growth or viability, MTT | 48 h | 11.5 µM |
| COc1cccc2cc(C(=O)NNC(N)=S)c(=O)oc12 | cell growth or viability, SRB | 72 h | 10.8 µM |
| N#Cc1cccc(-c2ccc(=O)n(Cc3cccc(-c4ncc(OCC5CCN(CC(=O)N6CCN(c7ccc8c(c7)C(=O)N(C7CCC(=O)NC7=O)C8=O)CC6)CC5)cn4)c3)n2)c1 (centres unmarked) | cell growth or viability, CCK-8 | 72 h | 0.543 µM |
| Cc1ccc(/C=N/NC(=O)c2cc3cc(Nc4nccc(-c5cccnc5)n4)ccc3[nH]2)cc1 | cell growth or viability, MTT | 48 h | 8.25 µM |
| Cc1ccc2nc(Cl)c(-c3nc4cc(F)ccc4[nH]3)cc2c1 | cell growth or viability, MTT | 48 h | > 100 µM |
| O=C(CCCCCCOc1ccc(Nc2ncc(F)c(-c3cn(C4CCCCC4)nn3)n2)cc1)NO | cell growth or viability, SRB | 72 h | > 10 µM |
| CC(C)=CCc1c(O)cc2c(c1O)C(=O)OC2 | cell growth or viability, CCK-8 | 24 h | > 50 µM |
| CC(=O)OC[C@@]12CCC[C@@](C)(CO)[C@H]1CC[C@@]13C[C@@H](C[C@H](O)[C@H]12)[C@H](C)C3=O | cell growth or viability, MTT |  | > 20 µM |
| COc1ccc([C@@H]2COc3cc(O)ccc3C2)c(OC)c1 | cell growth or viability, MTT | 72 h | 28.6 µM |
| O=C(Cc1ccccc1)NC(=S)n1c(-c2ccccc2)nc2ccccc21 | cell growth or viability, MTT | 48 h | 56.6 µM |
| Brc1ccc2nc3c4ccc[n+]5c4c4c(ccc[n+]4[Ru-4]546([n+]5ccccc5-c5cccc[n+]54)[n+]4ccccc4-c4cccc[n+]46)c3nc2c1.[O-][Cl+3]([O-])([O-])O.[O-][Cl+3]([O-])([O-])O | cell growth or viability, MTT | 72 h | > 100 µM |
| CC(C)(C)c1cc2c(O)c(c1)Cc1cc(C(C)(C)C)cc(c1OCC(=O)NCc1ccncc1)Cc1cc(C(C)(C)C)cc(c1O)Cc1cc(C(C)(C)C)cc(c1OCC(=O)NCc1ccncc1)COC2 | cell growth or viability, MTT | 72 h | 17.6 µM |
| C=C(CO)[C@@H]1CC[C@]2(C)CC[C@]3(C)[C@H](CC[C@@H]4[C@@]5(C)CCC(=O)C(C)(C)C5CC[C@]43C)C12 (some centres unmarked) | cell growth or viability, SRB |  | 10.7 µM |
| CC(=O)[O-].O.O.O.O.[Mn+2].[O-]c1ccc(Br)cc1C=NCCN1CCOCC1 | cell viability, MTT | 72 h | 25.3 µg/mL |
| Nc1ccccc1NC(=O)c1ccc(Nc2nccc(-c3cn(C4CCCCC4)nn3)n2)cc1 | cell growth or viability, SRB | 72 h | 3.3 µM |
| CC(=O)OC[C@H]1O[C@@H](n2nc(-c3cc4ccccc4[nH]3)n(-c3ccc(Cl)cc3)c2=S)[C@H](OC(C)=O)[C@@H](OC(C)=O)[C@@H]1OC(C)=O | cell growth or viability, MTT |  | 46.4 µM |

Excerpt of the above:
| SMILES | assay | setting | IC50 |
| --- | --- | --- | --- |
| COc1ccc(/C=C/C(=O)/C=C/c2cn(-c3ccccc3)nc2C(=O)O)cc1OC | cell growth | 72 h | > 25 µM |
| C/C(=N\NC(N)=S)c1c(O)c2ccccc2oc1=O | cell growth or viability, MTT | 48 h | 61.4 µM |
| CCC1=C(CC)C2=[N+]3C1=Cc1c(CC)c(CC)c4[n]1[Ir-3]31([c]3n(C(C)C)cc[n+]3C(C)C)([c]3n(C(C)C)cc[n+]3C(C)C)[n]3c(c(CC)c(CC)c3=CC3=[N+]1C(=C4)C(CC)=C3CC)=C2.F[P-](F)(F)(F)(F)F | cell growth or viability, MTT | 72 h | 2.4 µM |
